Assay results collected from several papers.
Numbered parts are unrelated; each lists some results of a single study. Values joined by “and” are separate records of one study, mostly repeats; a detail may differ.
Sequence of UniProt P50750 (whole entry, looked up): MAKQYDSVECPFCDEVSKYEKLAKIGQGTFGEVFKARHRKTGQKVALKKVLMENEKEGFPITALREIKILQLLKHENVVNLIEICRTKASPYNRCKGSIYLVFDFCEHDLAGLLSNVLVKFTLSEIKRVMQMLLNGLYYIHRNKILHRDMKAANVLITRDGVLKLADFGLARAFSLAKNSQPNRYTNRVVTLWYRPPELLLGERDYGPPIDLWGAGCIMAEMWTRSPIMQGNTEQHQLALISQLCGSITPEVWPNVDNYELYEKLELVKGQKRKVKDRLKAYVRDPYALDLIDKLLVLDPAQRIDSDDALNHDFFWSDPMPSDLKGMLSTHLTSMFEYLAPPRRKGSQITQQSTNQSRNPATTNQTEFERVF
Sequence of UniProt Q16832 (whole entry, looked up): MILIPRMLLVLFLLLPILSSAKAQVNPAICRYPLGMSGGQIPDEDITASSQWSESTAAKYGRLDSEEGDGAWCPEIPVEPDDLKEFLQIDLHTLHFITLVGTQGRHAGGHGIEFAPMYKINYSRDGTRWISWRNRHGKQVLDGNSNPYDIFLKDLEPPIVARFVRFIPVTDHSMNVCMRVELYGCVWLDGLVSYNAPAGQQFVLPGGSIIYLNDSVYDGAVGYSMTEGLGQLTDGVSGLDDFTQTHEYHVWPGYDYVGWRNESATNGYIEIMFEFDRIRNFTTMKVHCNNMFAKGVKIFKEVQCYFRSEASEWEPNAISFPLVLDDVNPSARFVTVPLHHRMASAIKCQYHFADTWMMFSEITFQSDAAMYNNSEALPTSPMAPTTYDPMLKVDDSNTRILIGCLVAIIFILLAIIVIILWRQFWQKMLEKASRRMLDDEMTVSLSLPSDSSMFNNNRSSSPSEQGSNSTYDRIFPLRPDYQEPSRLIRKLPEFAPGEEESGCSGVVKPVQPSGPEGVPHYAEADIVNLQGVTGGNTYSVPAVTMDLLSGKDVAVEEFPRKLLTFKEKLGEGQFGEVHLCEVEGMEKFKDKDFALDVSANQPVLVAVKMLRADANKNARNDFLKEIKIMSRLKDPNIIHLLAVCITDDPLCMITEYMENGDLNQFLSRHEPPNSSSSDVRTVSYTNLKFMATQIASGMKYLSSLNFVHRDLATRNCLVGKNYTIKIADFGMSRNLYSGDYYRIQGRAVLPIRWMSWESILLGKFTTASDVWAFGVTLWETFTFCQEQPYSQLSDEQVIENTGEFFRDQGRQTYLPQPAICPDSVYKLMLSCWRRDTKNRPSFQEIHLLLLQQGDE
Sequence of UniProt O75676 (whole entry, looked up): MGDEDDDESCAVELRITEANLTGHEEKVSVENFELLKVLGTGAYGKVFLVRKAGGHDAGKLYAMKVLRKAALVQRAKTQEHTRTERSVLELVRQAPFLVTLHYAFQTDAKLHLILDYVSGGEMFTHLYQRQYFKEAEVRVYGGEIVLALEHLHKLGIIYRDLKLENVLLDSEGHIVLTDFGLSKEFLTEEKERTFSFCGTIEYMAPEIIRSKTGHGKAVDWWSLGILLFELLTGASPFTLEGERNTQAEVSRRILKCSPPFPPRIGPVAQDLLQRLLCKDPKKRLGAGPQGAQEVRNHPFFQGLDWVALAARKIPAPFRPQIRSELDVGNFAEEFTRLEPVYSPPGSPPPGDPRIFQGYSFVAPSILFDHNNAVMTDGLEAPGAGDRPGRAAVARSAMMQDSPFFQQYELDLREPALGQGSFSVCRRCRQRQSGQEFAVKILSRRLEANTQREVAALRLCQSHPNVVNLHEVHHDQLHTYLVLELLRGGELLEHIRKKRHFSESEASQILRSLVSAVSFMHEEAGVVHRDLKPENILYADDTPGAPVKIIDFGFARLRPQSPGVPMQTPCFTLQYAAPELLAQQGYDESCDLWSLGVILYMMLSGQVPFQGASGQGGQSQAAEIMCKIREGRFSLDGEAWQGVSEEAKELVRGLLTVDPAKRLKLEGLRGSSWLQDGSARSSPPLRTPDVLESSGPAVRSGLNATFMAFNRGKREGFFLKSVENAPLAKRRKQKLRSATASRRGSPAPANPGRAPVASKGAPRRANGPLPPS
Sequence of UniProt Q6P2M8 (whole entry, looked up): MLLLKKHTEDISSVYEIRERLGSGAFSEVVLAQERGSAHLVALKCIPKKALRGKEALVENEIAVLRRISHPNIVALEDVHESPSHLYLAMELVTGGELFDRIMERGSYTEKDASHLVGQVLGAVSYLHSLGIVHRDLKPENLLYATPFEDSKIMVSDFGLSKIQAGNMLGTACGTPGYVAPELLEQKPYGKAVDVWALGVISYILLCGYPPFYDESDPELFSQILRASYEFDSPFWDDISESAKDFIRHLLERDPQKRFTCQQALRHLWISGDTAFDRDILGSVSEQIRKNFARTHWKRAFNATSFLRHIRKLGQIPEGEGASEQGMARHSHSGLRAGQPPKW
Sequence of UniProt P08581 (whole entry, looked up): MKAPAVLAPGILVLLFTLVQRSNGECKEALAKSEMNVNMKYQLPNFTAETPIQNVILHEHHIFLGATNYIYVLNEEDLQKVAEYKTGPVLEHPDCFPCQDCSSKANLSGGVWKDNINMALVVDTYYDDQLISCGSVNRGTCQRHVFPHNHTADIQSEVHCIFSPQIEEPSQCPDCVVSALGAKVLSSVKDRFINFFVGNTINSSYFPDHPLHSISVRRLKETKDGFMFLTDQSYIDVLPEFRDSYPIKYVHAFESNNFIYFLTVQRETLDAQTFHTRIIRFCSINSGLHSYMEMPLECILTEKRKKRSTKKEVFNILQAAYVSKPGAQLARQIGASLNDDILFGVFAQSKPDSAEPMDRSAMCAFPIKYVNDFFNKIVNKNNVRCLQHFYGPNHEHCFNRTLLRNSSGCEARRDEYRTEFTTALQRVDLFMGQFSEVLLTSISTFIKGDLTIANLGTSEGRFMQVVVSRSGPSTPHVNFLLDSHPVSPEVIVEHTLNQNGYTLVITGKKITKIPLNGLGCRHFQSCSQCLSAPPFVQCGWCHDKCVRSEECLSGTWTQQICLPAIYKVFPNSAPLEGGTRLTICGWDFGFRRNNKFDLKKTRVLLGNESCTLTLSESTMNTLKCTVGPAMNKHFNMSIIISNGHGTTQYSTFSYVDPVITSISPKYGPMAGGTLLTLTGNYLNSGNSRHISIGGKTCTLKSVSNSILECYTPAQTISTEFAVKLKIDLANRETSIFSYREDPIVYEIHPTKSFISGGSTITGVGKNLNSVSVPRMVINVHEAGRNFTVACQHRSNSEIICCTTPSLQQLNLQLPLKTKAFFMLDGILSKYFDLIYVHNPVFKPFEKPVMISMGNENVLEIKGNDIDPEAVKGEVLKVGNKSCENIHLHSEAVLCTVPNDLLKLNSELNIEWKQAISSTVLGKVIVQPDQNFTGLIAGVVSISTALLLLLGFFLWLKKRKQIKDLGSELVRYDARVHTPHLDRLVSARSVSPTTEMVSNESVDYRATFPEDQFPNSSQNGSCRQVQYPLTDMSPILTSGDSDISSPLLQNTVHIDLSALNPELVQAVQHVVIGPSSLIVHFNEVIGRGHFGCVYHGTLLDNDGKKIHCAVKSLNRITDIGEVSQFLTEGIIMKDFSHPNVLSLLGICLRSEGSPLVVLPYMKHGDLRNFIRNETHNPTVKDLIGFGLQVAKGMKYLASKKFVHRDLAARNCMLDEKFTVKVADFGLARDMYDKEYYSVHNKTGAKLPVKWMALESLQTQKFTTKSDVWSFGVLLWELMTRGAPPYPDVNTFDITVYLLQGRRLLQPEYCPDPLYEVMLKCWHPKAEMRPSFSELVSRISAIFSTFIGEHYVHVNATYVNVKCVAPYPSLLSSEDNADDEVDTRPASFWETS
Sequence of UniProt Q02750 (whole entry, looked up): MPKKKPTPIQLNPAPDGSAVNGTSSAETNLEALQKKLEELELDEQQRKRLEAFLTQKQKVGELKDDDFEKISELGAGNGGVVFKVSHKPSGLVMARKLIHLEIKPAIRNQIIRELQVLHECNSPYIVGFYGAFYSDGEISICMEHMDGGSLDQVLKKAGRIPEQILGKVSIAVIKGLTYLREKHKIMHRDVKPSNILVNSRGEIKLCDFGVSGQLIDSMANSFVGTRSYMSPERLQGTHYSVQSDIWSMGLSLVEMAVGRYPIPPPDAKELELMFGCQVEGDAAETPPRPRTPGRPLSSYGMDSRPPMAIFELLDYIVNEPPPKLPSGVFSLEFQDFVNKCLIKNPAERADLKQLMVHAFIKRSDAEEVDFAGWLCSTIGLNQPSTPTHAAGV

Sample 1
Host: human
Matrix: microsomes or S9
Concentration: 2 µM
Time: 0.5 h
SMILES | remaining compound
Cc1c(C(=O)O)sc2[nH]c(=O)n(CC(C)C)c(=O)c12 | 79.4%
CN(C)CCNC(=O)C1c2ccccc2Oc2ccccc21 | 77.6%
CCOc1ccc(-n2nc3ccc(N)cc3n2)cc1 | 24.9%
O=C(c1ccccc1)c1cc(Cl)ccc1Nc1cc(Br)cc2c1N(c1ncccn1)CC2 | 18.3%
O=C(O)c1nn(-c2ccccc2)nc1-c1nn(-c2ccccc2)nc1C(=O)O | 59.8%
CC1CCN(C(=O)c2cc3c([nH]2)CCOC3)c2c(O)cccc21 (stereo not shown) | 25.9%
CCOC(=O)c1ncn2c(N)c(C(N)=O)nnc12 | 73.9%
Cc1ccc2c(C)c(C(=O)Nc3ccc4c(c3)NC(=O)C(C)O4)oc2c1 (stereo not shown) | > 100%
Cc1ccc(CO)c(-c2ccc3c(c2)CNCC2(CCC2)O3)c1 | 31.6%
CCOC(=O)c1ccc(Nc2nc3ccc(Cl)cc3n3cnnc23)cc1 | > 100%
CCn1c(=O)c2sccc2n2c(CCCC(=O)NCCc3ccc(S(N)(=O)=O)cc3)nnc12 | 94.5%

Sample 2
Compound: CC(C)N(CCC(=O)c1ccc2ccccc2c1)Cc1ccccc1
Read-out: enzyme activity
Mode: inhibitor
Concentration: 0.5 µM
Baseline: control
target | remaining activity [%]
CAMK4 (Homo sapiens, UniProt Q16566) | 98.3
NEK3 (Homo sapiens, UniProt P51956) | 101
MET (Homo sapiens, UniProt P08581) | 110
DDR2 (Homo sapiens, UniProt Q16832) | 92.5
PLK3 (Homo sapiens, UniProt Q9H4B4) | 105
PRKG2 (Homo sapiens, UniProt Q13237) | 139
CDC42BPB (Homo sapiens, UniProt Q9Y5S2) | 95
CLK3 (Homo sapiens, UniProt P49761) | 99.6
MAPK11 (Homo sapiens, UniProt Q15759) | 108
RPS6KA4 (Homo sapiens, UniProt O75676) | 109
MINK1 (Homo sapiens, UniProt Q8N4C8) | 101
PAK3 (Homo sapiens, UniProt O75914) | 98.6
MAP2K1 (Homo sapiens, UniProt Q02750) | 82.5
Cyclin-dependent kinase 9, with cyclin K (CDK9, Homo sapiens, UniProt P50750) | 99.5
PNCK (Homo sapiens, UniProt Q6P2M8) | 102

Sample 3
Target: Eukaryotic initiation factor 4A-I (EIF4A1, Homo sapiens, UniProt P60842)
Sequence of UniProt P60842 (whole entry, looked up): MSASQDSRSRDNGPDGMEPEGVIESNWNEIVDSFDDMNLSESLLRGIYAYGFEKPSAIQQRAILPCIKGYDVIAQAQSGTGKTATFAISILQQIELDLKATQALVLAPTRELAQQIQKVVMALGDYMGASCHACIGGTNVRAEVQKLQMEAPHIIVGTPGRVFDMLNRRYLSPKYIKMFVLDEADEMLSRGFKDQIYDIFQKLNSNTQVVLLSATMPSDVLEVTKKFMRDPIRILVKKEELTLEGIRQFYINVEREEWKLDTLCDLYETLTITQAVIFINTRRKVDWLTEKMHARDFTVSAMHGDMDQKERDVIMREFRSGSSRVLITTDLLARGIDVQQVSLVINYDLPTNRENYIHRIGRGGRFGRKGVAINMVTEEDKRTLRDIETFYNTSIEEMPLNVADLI
Read-out: RNA clamping
Technique: fluorescence polarization
Concentration: concentration not given
Added: FAM-labelled poly r(AG)8 RNA
Direction: higher = more clamping
SMILES | fluorescence polarization change
COc1ccc([C@]23Oc4cc(OC)cc(OC)c4[C@](O)(C2O)[C@H](c2c(F)c(F)c(F)c(F)c2F)[C@H]3c2ccccc2)cc1 (stereo partly shown) | 8.1 mP
CCOC(=O)COc1cc(OC)c2c(c1)O[C@@]1(c3ccc(OC)cc3)[C@H](c3ccccc3)c3c(nc(-c4ccccc4)[nH]c3=O)[C@@]21OCC(=O)OCC | -15.9 mP
COc1ccc([C@@]23Oc4cc(OC)cc(OC)c4[C@]2(O)C2=NNC(=O)C2=C3c2ccccc2)cc1 | 9.6 mP
COc1cc(OC)c2c(c1)O[C@@]1(c3ccc(Br)cc3)[C@H](c3ccccc3)c3c(nc(-c4ccccc4)[nH]c3=O)[C@@]21O | 11.7 mP
COc1ccc([C@@]23Oc4cc(OC)cc(OC)c4[C@]2(O)[C@H](O)[C@H](C(=O)c2ccccc2OC)[C@H]3c2ccccc2)cc1 | 3.4 mP
COc1ccc([C@@]23Oc4cc(OC)cc(OC)c4[C@]2(O)c2nc(-c4cccc(OCc5ccccc5)c4)[nH]c(=O)c2[C@H]3c2ccccc2)cc1 | 18.2 mP
COc1cc(F)cc2c1[C@]1(O)[C@H](O)[C@H](C#N)[C@@H](c3ccccc3)[C@]1(c1ccc(Br)cc1)O2 | 41 mP
COC(=O)[C@@H]1[C@@H](c2ccccc2)[C@]2(c3ccc(OC)cc3)Oc3cc(OC)cc(OC)c3[C@@]23OC(c2ccc(C(F)(F)F)cc2)=N[C@@]13O | -1.6 mP
COC(=O)[C@H]1[C@@H](O)[C@@]2(O)c3c(OC)cc(O)cc3O[C@@]2(c2ccc(Br)cc2)[C@@H]1c1ccccc1 | -2.3 mP and 72.3 mP
CCOCCOCCN(OC)C(=O)[C@H]1[C@@H](O)[C@@]2(O)c3c(OC)cc(OC)cc3O[C@@]2(c2ccc(OC)cc2)[C@@H]1c1ccccc1 | 31.8 mP
CN[C@@]12C(=O)[C@H](C(=O)OC)[C@@H](c3ccccc3)[C@]1(c1ccc(OC)cc1)Oc1cc(OC)cc(OC)c12 | -3.7 mP
COc1ccc([C@@]23Oc4cc(OC)cc(OC)c4[C@]2(O)[C@H](O)[C@H](C(=O)c2oc4ccccc4c2C)[C@H]3c2ccccc2)cc1 | -4.7 mP
COC(=O)[C@@H]1[C@@H](c2ccccc2)[C@]2(c3ccc(OC)cc3)Oc3cc(OC)cc(OC)c3[C@@]23NC(N2CCOCC2)=N[C@@]13O | 68.9 mP

Sample 4
Target: Calcium/calmodulin-dependent protein kinase type II subunit alpha (CAMK2A, Homo sapiens, UniProt Q9UQM7)
Sequence of UniProt Q9UQM7 (whole entry, looked up): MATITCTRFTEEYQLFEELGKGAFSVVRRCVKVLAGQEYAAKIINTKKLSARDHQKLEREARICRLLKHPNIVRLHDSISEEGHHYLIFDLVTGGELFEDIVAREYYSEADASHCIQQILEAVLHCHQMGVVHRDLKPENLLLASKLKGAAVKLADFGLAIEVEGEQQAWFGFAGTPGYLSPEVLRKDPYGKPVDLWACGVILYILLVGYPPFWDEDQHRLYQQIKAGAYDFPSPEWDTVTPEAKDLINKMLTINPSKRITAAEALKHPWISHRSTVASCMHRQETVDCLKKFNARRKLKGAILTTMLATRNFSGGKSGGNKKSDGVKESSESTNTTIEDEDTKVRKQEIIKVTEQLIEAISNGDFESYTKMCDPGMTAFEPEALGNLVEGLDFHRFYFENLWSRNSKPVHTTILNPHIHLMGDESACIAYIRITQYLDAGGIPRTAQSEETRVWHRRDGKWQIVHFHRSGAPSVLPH
Read-out: enzyme activity
Mode: inhibitor
Concentration: 10 µM
Compound | inhibition [%]
COC(=O)CC/C(C)=C/Cc1c(O)c2c(c(C)c1OC)COC2=O | -53
Cn1c(=O)[nH]c(=O)c2[nH]cnc21 | 30
O=c1[nH]c(=O)n([C@H]2C[C@H](O)[C@@H](CO)O2)cc1F | 2
CCCCCCCCCCCCCCCC(=O)OC[C@H](CO)OC(=O)CCCCCCCCCCCCCCC | -18
CO[C@]1(CC[C@@H](C)CO[C@@H]2O[C@H](CO)[C@@H](O)[C@H](O)[C@H]2O)O[C@H]2C[C@H]3[C@@H]4CC=C5C[C@@H](O[C@@H]6O[C@H](CO)[C@@H](O[C@@H]7O[C@@H](C)[C@H](O)[C@@H](O)[C@H]7O)[C@H](O)[C@H]6O[C@@H]6O[C@@H](C)[C@H](O)[C@@H](O)[C@H]6O)CC[C@]5(C)[C@H]4CC[C@]3(C)[C@H]2[C@@H]1C | 8
C/C=C1/C(=O)C[C@H]2[C@@H]3CCC4=CC(=O)CC[C@]4(C)[C@H]3CC[C@]12C | -63
CCC/C=C1\OC(=O)C2=C1CCC=C2 | -35

Repeated from above (sample 2):
target | remaining activity [%]
PLK3 (Homo sapiens, UniProt Q9H4B4) | 105
MAP2K1 (Homo sapiens, UniProt Q02750) | 82.5
CLK3 (Homo sapiens, UniProt P49761) | 99.6
PRKG2 (Homo sapiens, UniProt Q13237) | 139
Cyclin-dependent kinase 9, with cyclin K (CDK9, Homo sapiens, UniProt P50750) | 99.5
DDR2 (Homo sapiens, UniProt Q16832) | 92.5
RPS6KA4 (Homo sapiens, UniProt O75676) | 109
